Results of several laboratories.
Numbered parts are unrelated; each lists some results of a single study. ± marks the error that the study gave.

Study 1
Target: Calcium/calmodulin-dependent protein kinase type II subunit alpha (CAMK2A, Homo sapiens, UniProt Q9UQM7)
Chain of UniProt Q9UQM7 (whole entry, looked up): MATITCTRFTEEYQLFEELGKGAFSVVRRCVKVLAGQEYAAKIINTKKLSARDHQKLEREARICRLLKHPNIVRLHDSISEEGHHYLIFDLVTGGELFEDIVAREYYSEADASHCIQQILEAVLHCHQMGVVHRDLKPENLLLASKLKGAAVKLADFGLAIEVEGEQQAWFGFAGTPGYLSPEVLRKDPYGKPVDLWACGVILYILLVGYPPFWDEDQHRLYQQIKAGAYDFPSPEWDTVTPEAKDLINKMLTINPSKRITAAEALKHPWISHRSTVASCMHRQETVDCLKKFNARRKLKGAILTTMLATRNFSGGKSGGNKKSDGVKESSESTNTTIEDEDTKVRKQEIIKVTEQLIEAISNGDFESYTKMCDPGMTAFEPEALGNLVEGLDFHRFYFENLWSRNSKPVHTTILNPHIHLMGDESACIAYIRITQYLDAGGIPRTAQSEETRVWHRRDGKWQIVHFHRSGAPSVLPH
Read-out: enzyme activity
Action: inhibitor
Concentration: 10 µM
Structure (SMILES)	inhibition [%]
O=c1c(O)c(-c2ccccc2)oc2ccc(O)cc12	19
CCN(CC)CCNc1ccc(C)c2sc3ccccc3c(=O)c12	-6
COc1cc2c(=O)c(-c3ccc(O)cc3)coc2cc1O[C@@H]1O[C@H](CO)[C@@H](O)[C@H](O)[C@H]1O	-6
CC(C)=CC(O)C/C(C)=C/COc1c2ccoc2cc2oc(=O)ccc12 (stereo not drawn)	-19
Nc1nc(Cl)nc2c1ncn2[C@@H]1O[C@H](CO)[C@@H](O)[C@@H]1F	-2

Study 2
Compound: C=CCc1ccc(O)c(-c2ccc(O)c(CC=C)c2)c1
Read-out: chloride current
Method: whole-cell voltage clamp
ANO1 del476-501/R561A: Anoctamin-1 (ANO1, Homo sapiens, UniProt Q5XXA6, del476-501/R561A)
Chain of UniProt Q5XXA6 (whole entry, unmodified, looked up): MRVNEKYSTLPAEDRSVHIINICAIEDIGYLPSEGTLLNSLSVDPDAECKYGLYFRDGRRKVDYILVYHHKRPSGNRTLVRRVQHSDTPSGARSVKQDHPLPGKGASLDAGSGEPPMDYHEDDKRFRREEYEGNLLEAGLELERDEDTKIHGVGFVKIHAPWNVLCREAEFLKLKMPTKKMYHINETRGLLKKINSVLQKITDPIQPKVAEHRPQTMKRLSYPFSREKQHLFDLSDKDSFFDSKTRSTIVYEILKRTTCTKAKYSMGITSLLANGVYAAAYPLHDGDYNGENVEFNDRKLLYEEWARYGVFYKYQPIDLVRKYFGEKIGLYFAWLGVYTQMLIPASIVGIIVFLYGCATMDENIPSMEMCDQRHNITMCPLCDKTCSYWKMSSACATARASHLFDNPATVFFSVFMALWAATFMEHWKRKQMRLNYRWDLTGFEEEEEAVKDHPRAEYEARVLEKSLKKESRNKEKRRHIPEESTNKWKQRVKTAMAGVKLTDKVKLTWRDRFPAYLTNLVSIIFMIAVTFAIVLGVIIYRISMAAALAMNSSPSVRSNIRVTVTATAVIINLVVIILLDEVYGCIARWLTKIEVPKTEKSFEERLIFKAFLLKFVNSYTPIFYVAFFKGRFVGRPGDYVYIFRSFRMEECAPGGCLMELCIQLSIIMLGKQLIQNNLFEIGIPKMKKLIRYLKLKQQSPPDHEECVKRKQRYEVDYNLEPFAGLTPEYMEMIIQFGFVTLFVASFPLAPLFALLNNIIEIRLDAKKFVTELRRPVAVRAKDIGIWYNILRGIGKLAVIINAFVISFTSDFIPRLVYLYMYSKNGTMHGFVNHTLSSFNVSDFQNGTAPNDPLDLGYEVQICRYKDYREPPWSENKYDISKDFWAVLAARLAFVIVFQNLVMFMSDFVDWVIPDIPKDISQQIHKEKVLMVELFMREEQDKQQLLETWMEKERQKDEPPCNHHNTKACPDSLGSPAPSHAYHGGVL
ANO1 del476-501/M544A: Anoctamin-1 (ANO1, Homo sapiens, UniProt Q5XXA6, del476-501/M544A)
ANO1 del476-501: Anoctamin-1 (ANO1, Homo sapiens, UniProt Q5XXA6, del476-501)
target	action	notes	together with	IC50 [µM]
Anoctamin-1 (ANO1, Homo sapiens, UniProt Q5XXA6, del476-501/R631D)	inhibitor	R605D mutant at 60 mV	–	23.8
Anoctamin-1 (ANO1, Homo sapiens, UniProt Q5XXA6, del476-501/F803A)	–	membrane voltage 40 mV	–	11.9
ANO1 del476-501/R561A	–	membrane voltage 40 mV	–	6.41
Anoctamin-1 (ANO1, Homo sapiens, UniProt Q5XXA6, del476-501/R631K)	inhibitor	R605K mutant at 20 mV	–	7.09
ANO1 del476-501/R561A	–	membrane voltage -80 mV	–	7.16
ANO1 del476-501/M544A	–	membrane voltage -80 mV	–	4.13
ANO1 del476-501/M544A	–	membrane voltage -100 mV	–	4.85
ANO1 del476-501	inhibitor	-40 mV voltage	300 nM Ca2+	2.8
ANO1 del476-501/M544A	–	membrane voltage 40 mV	–	3.6
ANO1 del476-501	–	membrane voltage -40 mV	300 nM Ca2+	2.8

Study 3
Target: Muscarinic acetylcholine receptor M4 (CHRM4, Homo sapiens, UniProt P08173)
Chain of UniProt P08173 (whole entry, looked up): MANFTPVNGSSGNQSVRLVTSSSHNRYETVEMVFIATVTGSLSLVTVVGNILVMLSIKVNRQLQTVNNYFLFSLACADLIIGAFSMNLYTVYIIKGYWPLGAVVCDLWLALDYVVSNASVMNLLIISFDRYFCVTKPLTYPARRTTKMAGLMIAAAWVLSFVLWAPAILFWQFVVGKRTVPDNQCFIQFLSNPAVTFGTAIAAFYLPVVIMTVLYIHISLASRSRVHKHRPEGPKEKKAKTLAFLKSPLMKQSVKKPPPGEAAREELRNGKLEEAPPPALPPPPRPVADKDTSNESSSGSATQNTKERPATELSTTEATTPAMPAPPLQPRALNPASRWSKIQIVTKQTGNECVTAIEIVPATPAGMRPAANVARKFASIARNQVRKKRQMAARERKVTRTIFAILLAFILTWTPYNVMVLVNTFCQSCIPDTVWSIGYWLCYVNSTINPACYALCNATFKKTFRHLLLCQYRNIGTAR
Read-out: binding
Method: radioligand binding
Concentration: 10 µM
SMILES	inhibition
CC1=C(C#N)C(c2ccc3c(c2)c(NC(=O)c2ccccc2C)nn3C)C(C#N)=C(C)N1	6.87%
CCOCCn1cc(C(=O)Nc2ccc(-n3nc(-c4cccnc4)cc3C(F)(F)F)cn2)ccc1=O	4.26%
Cc1c(NC(=O)c2cc(C(N)=O)nc3cc(F)ccc23)c(C(F)(F)F)nn1Cc1ccc(C(C)(C)C)cc1	8.69%
O=C(NC[C@@H]1[C@H]2CN(C(=O)OCc3cc(C(F)(F)F)cc(C(F)(F)F)c3)C[C@@H]12)c1ccc2[nH]nnc2c1	14.2%
Cc1c[nH]c2nccc(Oc3c(F)cc(Nc4cc(Cl)nc(N)n4)cc3F)c12	-12.5%
C[C@H](NC(=O)c1cnc2n1[C@](C)(Cc1ccc(C#N)cc1)C(=O)N2c1cc(Cl)c(F)c(Cl)c1)C(=O)NC1(c2ccccn2)CC1	12.1%
O=C1CCc2cc(Nc3cc(OC4CCOCC4)c([N+](=O)[O-])cc3Cl)ccc2N1	48.7%
Cc1nc(N2CC[C@@H](O)C2)ncc1-c1cc(C(F)(F)F)cc2[nH]ncc12	5.7%
O=C(Nc1ccc(-n2nc(-c3cccnc3)cc2C(F)(F)F)cn1)c1ccc(-c2ccccc2)c(F)c1	0.8%
CN(C)C(=O)Cn1cc(-c2nc([C@@](C)(c3ccc(-c4cnc(N)nc4)cc3)C3CC3)no2)cn1	10.3%
CC(=O)Nc1nc(CN2CCC[C@H](Cc3cc(C)nc(C)c3)C2)cs1	8.78%
O=C1c2ccc(Nc3ccc(F)cc3F)cc2CCc2ccc(OC[C@H](O)CO)cc21	-3.22%
CN1CCN(C(=O)C(C)(C)c2ccc(C(=O)Nc3cn4cc(-c5ccncc5)ccc4n3)cc2)CC1	25.2%
CS(=O)(=O)NCC[C@H](NC(=O)c1cncc2c1cnn2-c1ccc(F)cc1)c1ccnc(S(C)(=O)=O)c1	10.8%
O[C@]1(C(F)(F)F)CCCC[C@H]1Nc1ccc(F)cc1	13.9%
CN([C@@H]1CCc2c(CC(=O)O)c3cc(S(C)(=O)=O)ccc3n2C1)S(=O)(=O)c1ccc(F)cc1	-1.13%
COc1cc(-c2cn(C3CCc4ccccc4N(CC(F)(F)F)C3=O)nn2)ccc1-n1ccc(C)n1 (stereo not drawn)	6.94%
O=C([C@H]1C[C@H](O)CN1c1ccc(Cl)cc1)N1CC2COCC(C1)N2Cc1ccc(Cl)cc1	-6.12%
Cc1nc(Cc2cccc(C(F)(F)F)c2)sc1-c1ccc(C(N)=O)nc1	2.94%
O=C(Nc1cccnn1)N1CCC(=Cc2cccc(Oc3ccc(C(F)(F)F)cn3)c2)CC1	7.38%
CC(=O)N1CCC(c2ccc(C(=O)NC(=N)N)cc2C(F)(F)F)CC1	22.3%

Study 4
Structure (SMILES): COc1cc(C(=O)N2CCC(N3CCN(C)CC3)CC2)ccc1Nc1ncc2c(n1)N(C)c1ccccc1C(=O)N2C
Read-out: kinase activity
target	concentration	remaining activity
CLK2	10 µM	69 ± 1%
AMPK	1 µM	70 ± 7%
PKBb	1 µM	93 ± 3%
MSK1	1 µM	79 ± 8%
HER4	10 µM	72 ± 4%
PAK2	1 µM	97 ± 1%

A few entries again (study 2):
target	action	notes	together with	IC50 [µM]
ANO1 del476-501	–	membrane voltage -40 mV	300 nM Ca2+	2.8
ANO1 del476-501	inhibitor	-40 mV voltage	300 nM Ca2+	2.8
ANO1 del476-501/M544A	–	membrane voltage 40 mV	–	3.6
ANO1 del476-501/R561A	–	membrane voltage -80 mV	–	7.16
Anoctamin-1 (ANO1, Homo sapiens, UniProt Q5XXA6, del476-501/R631D)	inhibitor	R605D mutant at 60 mV	–	23.8
